{"data": "Published values of several laboratories", "note": "Compare with care: the assays were run in different laboratories. Several values in a cell are separate wells, animals, samples, runs or records. ± marks the error that the study gave.", "UniProt Q13283, sequence (whole entry, looked up)": "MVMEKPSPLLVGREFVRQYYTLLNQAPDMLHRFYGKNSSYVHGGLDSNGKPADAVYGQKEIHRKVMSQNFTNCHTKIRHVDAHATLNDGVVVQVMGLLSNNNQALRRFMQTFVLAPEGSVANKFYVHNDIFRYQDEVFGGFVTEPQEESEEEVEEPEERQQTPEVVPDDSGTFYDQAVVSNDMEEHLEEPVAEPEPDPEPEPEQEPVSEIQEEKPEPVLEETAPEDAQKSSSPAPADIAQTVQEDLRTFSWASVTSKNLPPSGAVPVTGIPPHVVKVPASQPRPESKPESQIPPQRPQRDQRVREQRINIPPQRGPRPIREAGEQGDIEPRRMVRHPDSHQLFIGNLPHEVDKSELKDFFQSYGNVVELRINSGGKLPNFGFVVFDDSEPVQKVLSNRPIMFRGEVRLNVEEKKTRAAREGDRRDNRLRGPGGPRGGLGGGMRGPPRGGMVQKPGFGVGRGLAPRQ", "UniProt Q6DWJ6, sequence (whole entry, looked up)": "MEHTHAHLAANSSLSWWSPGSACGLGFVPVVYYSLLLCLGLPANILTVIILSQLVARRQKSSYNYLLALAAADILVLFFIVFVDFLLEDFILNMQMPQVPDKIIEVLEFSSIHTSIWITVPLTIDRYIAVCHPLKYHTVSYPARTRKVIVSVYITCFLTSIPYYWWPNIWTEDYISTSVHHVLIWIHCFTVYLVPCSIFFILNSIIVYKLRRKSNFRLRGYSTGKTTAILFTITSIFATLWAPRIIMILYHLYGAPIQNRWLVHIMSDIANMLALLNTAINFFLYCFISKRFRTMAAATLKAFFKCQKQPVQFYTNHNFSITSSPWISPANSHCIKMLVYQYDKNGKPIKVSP"}
{"Substance": "DLDSDDEY (TELO2 488-494 (Homo sapiens); pS491)", "target or system": "PIH1D1 51-180 K113A (Homo sapiens, UniProt Q9NWS0)", "assay": "ITC", "system": "peptide", "quantity": "Kd", "value": "90 µM"}
{"Substance": "HVLVMSATRR", "system": "peptide, C57BL/6J mice, male, serum", "setting": "subcutaneous osmotic pump, 3 mg/kg/day peptide basis, 8 weeks", "quantity": "total protein", "value": "4.6 g/dL and 4.7 g/dL"}
{"Substance": "aspterric acid", "target or system": "Arabidopsis thaliana", "assay": "root length", "system": "Col-0, seedlings", "setting": "50 µg/mL, half-strength MS", "quantity": "inhibition", "value": "99.1%"}
{"Substance": "NLFDDNIDIFADLT (WASHC2A 1261-1274 (Homo sapiens))", "target or system": "SNX27 K496D (Homo sapiens)", "assay": "ITC", "system": "peptide", "quantity": "Kd", "value": "33.5 ± 1.48 µM"}
{"Substance": "insulin human", "assay": "item: GCLM", "system": "mouse, uninfected, brain", "setting": "ip, dose not given, together with: insulin", "how to read": "reference: PBS-treated", "quantity": "mRNA fold change", "value": 1.16}
{"Substance": "ACAWCLRGTICCSG (MP5.4.3; Cys2-Cys12, Cys5-Cys11 disulfides)", "target or system": "CTRB1 α-chymotrypsin (Bos taurus, UniProt P00766)", "assay": "steady-state kinetics", "system": "peptide", "quantity": "Ki", "value": "0.4 nM"}
{"Substance": "PRPRPRPRPRPRPRPRPRPRPRPRPRPRPRPRPRPRPRPRPRPRPRPRPRPRPRPRPRPR (poly-PR 30 repeats)", "target or system": "G3BP1 (UniProt Q13283)", "assay": "BLI", "system": "peptide", "quantity": "Kd", "value": "0.0298 µM"}
{"Substance": "Histone H3.1 fragment (Homo sapiens) (sequence not shown)", "target or system": "WDR5 fragment (Homo sapiens)", "assay": "ITC", "quantity": "Kd", "value": "8.71 ± 0.94 µM"}
{"Substance": "GRGRGRGRGRGRGRGRGRGRGRGRGRGRGRGRGRGRGRGRGRGRGRGRGRGRGRGRGRGR (poly-GR 30 repeats)", "target or system": "G3BP1 143-226 (Homo sapiens, UniProt Q13283)", "assay": "BLI", "system": "peptide", "quantity": "Kd", "value": "0.00057 µM"}
{"Substance": "YGGFLRKYPK (α-neoendorphin mature peptide (UniProt P01213))", "target or system": "GPR139 (Homo sapiens, UniProt Q6DWJ6)", "assay": "radioligand binding", "system": "peptide", "quantity": "Ki", "value": "678 nM"}
{"Substance": "SSASSEDYIIILPECFDTSRPLGDS (NBR1 725-749 (UniProt Q14596); FITC label)", "target or system": "MAP1LC3A (Homo sapiens, UniProt Q9H492)", "assay": "FP", "system": "peptide", "quantity": "Kd", "value": "1.79 ± 0.17 µM"}
{"Substance": "DFMTWF (designed peptide)", "target or system": "NHERF2 142-254 (Homo sapiens, UniProt Q15599-1)", "assay": "competition with labeled peptide, fluorescence polarisation", "system": "peptide", "quantity": "Ki", "value": "363 ± 152 nM"}
{"Substance": "nonaarginine", "target or system": "PorA peptide pore", "assay": "peptide binding, planar bilayer single-channel recording", "setting": "pH 7.4, +40 mV, trans side, 150 mM KCl", "quantity": "Kd", "value": "16.7 ± 2 µM"}
{"note": "Some of these lines once more:"}
{"Substance": "DLDSDDEY (TELO2 488-494 (Homo sapiens); pS491)", "target or system": "PIH1D1 51-180 K113A (Homo sapiens, UniProt Q9NWS0)", "assay": "ITC", "system": "peptide", "quantity": "Kd", "value": "90 µM"}
